Results collected from several papers.
Each numbered part is a random draw from the data of one study; scales do not carry over between parts.

Study 1
Target: Histone acetyltransferase KAT6A, winged helix 1, GST fusion (KAT6A, Homo sapiens, UniProt Q92794, residues 1-85)
Technique: protein binding microarray
Form: double-stranded DNA, one strand shown
Matrix: in vitro
Concentration: not given
Setting: 8-mer, flanks averaged, mean of 2 arrays, mostly near background
Baseline: not given
Direction: higher = stronger binding
Construct (chain): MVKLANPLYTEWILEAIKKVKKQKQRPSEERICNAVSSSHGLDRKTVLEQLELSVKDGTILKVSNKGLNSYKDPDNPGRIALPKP
With `GTATCAAA` the E-score was -0.14.
The E-score of `AGGCATAA` is reported as -0.149.
For `AATGGGCG`, the E-score was 0.0221.
`TACGGTAA` has an E-score of 0.227.

Study 2
Target: Interferon regulatory factor 5, full length, phosphomimetic (IRF5, Homo sapiens, UniProt Q13568-2, residues 1-514, K96S/S451D/S453D/S456D/S462D)
Technique: protein-binding microarray
Form: double-stranded DNA, one strand shown
Matrix: in vitro
Concentration: 250 nM
Setting: 60-bp whole probe
With: salmon DNA 0.4 mg/ml
Baseline: random background probes
Direction: higher = stronger binding
`GCCTAGCACTTAGATATCGGGTATCGAGTAGTGCTAGTCTTGATTCGCTTGACGCTGCTG` has a log fluorescence of 3.64 z-score.
The log fluorescence of `GCCTAGCACTTAGATATCAGTATCGATTAGTGCTAGGTCTTGATTCGCTTGACGCTGCTG` is reported as 8.11 z-score.
With `GCCTAGCACTTCAGTCCCCTCTTCTGGATGTGCTAGGTCTTGATTCGCTTGACGCTGCTG` the log fluorescence was 0.101 z-score.
The log fluorescence of `GCCTAGCACTAAGATATCGGGTATCGATTAGTGCTAGTCTTGATTCGCTTGACGCTGCTG` is reported as 5.02 z-score.

Study 3
Target: Sal-like protein 4, full length isoform A (SALL4, Homo sapiens, UniProt Q9UJQ4, residues 1-1053)
UniProt Q9UJQ4, sequence (whole entry, looked up): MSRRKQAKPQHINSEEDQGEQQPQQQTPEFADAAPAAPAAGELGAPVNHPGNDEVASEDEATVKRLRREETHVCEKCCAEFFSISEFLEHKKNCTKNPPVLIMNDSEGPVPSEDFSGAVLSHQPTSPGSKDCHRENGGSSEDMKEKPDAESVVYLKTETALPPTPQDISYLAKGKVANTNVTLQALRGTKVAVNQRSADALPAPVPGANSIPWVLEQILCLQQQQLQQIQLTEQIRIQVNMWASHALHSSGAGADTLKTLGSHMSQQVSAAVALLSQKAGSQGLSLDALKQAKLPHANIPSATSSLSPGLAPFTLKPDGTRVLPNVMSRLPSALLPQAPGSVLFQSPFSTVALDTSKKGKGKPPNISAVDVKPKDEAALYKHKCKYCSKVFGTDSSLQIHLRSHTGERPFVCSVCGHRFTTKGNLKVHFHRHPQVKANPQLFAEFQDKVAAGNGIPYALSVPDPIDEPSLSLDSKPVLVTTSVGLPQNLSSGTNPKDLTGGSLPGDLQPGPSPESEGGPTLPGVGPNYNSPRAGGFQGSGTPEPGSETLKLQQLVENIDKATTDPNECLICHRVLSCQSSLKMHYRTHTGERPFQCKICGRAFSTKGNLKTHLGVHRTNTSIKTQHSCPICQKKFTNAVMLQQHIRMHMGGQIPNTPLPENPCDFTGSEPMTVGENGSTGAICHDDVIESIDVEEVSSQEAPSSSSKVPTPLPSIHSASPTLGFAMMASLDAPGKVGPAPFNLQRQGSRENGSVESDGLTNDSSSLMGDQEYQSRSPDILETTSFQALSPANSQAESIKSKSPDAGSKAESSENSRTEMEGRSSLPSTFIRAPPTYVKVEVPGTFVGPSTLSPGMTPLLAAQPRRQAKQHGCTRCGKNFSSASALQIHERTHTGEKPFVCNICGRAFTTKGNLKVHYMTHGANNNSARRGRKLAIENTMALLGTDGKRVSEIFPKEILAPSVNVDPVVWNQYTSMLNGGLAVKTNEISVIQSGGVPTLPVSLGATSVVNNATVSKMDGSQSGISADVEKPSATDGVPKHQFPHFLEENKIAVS
Technique: universal PBM
Form: double-stranded DNA, one strand shown
Matrix: in vitro
Concentration: 600 nM
Setting: 8-mer, flanks averaged, mean of replicates
Direction: higher = stronger binding
`CACAGATG` has an E-score of 0.0446.
`GATTCAGA` has an E-score of 0.0873.
For `CAGAGCTC`, the E-score was -0.212.
`AAAGCCAA` gave an E-score of 0.021.

Single results of other studies
With `PhoQ, residues 284 288 289 292 302 303 AGGCYF` the fold induction was 2.71 (PhoP, residues 12 14 15 18 19 QQAYL (Escherichia coli, UniProt P23836); Sort-seq, measured: YFP reporter; E. coli; PhoQ-PhoP variant library, with: 10 µM Mg2+; baseline: high Mg2+ state, higher = stronger signaling).

Some of these lines once more (study 2):
With `GCCTAGCACTTCAGTCCCCTCTTCTGGATGTGCTAGGTCTTGATTCGCTTGACGCTGCTG` the log fluorescence was 0.101 z-score.
